Results of several laboratories.
Each line is one published result; not all experiments were run side by side. Several values in a cell are separate wells, animals, samples, runs or records. ± marks the error that the study gave.

COc1c(CCC[P+](c2ccccc2)(c2ccccc2)c2ccccc2)cc2c(c1OC)OCO2.[I-]  LC50 (COLO 205; SRB): > -4 log M
Cc1cc(C(C)(C)c2ccc(O)c(C)c2)ccc1O  G1 phase cells (HepG2 spheroids; Hoechst flow cytometry; 0.1 µM, 24 h): 70.8 ± 3.16%
CN1CCN(C2(CNC3CCN(c4cccc(-c5cc6cc(F)ccc6[nH]5)c4)CC3)CCC2)CC1  CC50 (OVCAR-5): 6.71 µM
Cc1cnc2ccc3c(nc(N)n3C)c2n1  colony number (BALB/c 3T3; colony forming efficiency; 0.1 µM): 88 colonies per plate and 96 colonies per plate
CNC(=O)c1ccc(C)c(-n2c(C)cc(OCc3ccc(F)cc3F)c(Br)c2=O)c1  maximum inhibition (human coronavirus OC43; virus-induced cell killing; MRC-5; screen): 1.89%
CC(C)N1CCC(NC2CCN(c3cccc(-c4cc5cc(F)ccc5[nH]4)c3)CC2)CC1  CC50 (A549): 7.21 µM
O=c1cc(N2CCOCC2)oc2c(-c3cccc4c3sc3ccccc34)cccc12  maximum inhibition (human coronavirus OC43; virus-induced cell killing; MRC-5; screen): 7.87%
COc1ccc2c(c1)[nH]c1c(C)nccc12  DNA methylation (DU-145; bisulfite pyrosequencing, item: RASSF1A promoter CpG site 17; 10 µM, 16 h): 92.9%
COc1cc(CCC[P+](c2ccccc2)(c2ccccc2)c2ccccc2)c(OC)c2c1OCO2.[I-]  GI50 (CAKI-1; SRB): -5.62 log M
CN1CCc2[nH]c(-c3ccnc(NC(=O)[C@@H](CC(F)F)c4ccc(F)cc4)c3)c(Nc3ccccc3)c2C1=O  log2 fold change (MOLM-13; mRNA level, RNA-seq, item: SLC7A5; 200 nM, 24 h; relative to: DMSO): -3.23
C/C=C(/C)C(=O)O[C@H]1C(C)=C2[C@H]([C@@H]1OC(=O)CCCCCCC)[C@@](C)(OC(C)=O)C[C@H](OC(=O)CCC)[C@@]1(O)[C@H]2OC(=O)[C@@]1(C)O  log2 fold change (HEK293T; RNA-seq, item: CLU mRNA; 10 µM, 6 h; relative to: vehicle): -0.0535
Nc1ncnc2c1ncn2[C@@H]1O[C@@H]2COP(=O)(O)O[C@H]3[C@@H](O)[C@H](n4cnc5c(=O)[nH]cnc54)O[C@@H]3COP(=O)(O)O[C@H]2[C@H]1O  pathway fold enrichment (HFF-1; RNA sequencing Reactome analysis, item: Reactome R-HSA-1236977 endosomal/vacuolar pathway; with: West Nile virus infection; relative to: West Nile virus infected cells, upregulated pathway): 23
Cn1c(CCCCCCC(=O)NO)nc2cc(N(CCCl)CCCl)ccc21  EC50 (HEK293T ATF4-FLuc reporter; ATF4 reporter gene, activator, luciferase reporter): 3.75 µM
COc1c(C)c2c(c(O)c1C/C=C(\C)CCC(=O)O)C(=O)OC2  IC50 (Calu-6; cell proliferation; lung cancer): 1.05 µM
